Results gathered from unrelated publications.
Compare with care: the assays were run in different laboratories. Several values in a cell are separate wells, animals, samples, runs or records. Numbers after ± are the reported error.

Substance | organism | test | test system | conditions | IC50
CCOc1c2c(c(-c3ccc4c(c3)OCO4)c3cc(OC)c(OC)cc13)C(=O)OC2 | VSV pseudotyped with Ebola virus GP | viral entry, item: GFP | – | – | 0.112 ± 0.0147 µM
CC(C)CNC(=O)[C@@H](N)Cc1ccc(OP(=O)(O)CO[C@H](CO)Cn2cnc3c(N)ncnc32)cc1 | cowpox virus | viral replication | – | – | 3 µM
O=C(O)COCCN1CCN(C(c2ccccc2)c2ccc(Cl)cc2)CC1 (stereo not drawn) | Marburg virus | HIV/MARV pseudovirion entry | A549 | 48 h | > 100 µM
COc1cc2c(O)c3c(c(-c4ccc5c(c4)OCO5)c2cc1OC)C(=O)N(/N=C/c1cccnc1)C3 | VSV pseudotyped with Ebola virus GP | viral entry, item: GFP | – | – | 4.48 ± 0.467 µM
CCC(CCCCCCCCCCc1cc(O)cc(O)c1)C(C)C (stereo not drawn) | Bacillus anthracis | – | 34F2 | – | 15.6 µM
NCCCCCc1cnc[nH]1 | Marburg virus | HIV/MARV pseudovirion entry | A549 | 48 h | > 100 µM
N=C(N)c1ncn([C@@H]2O[C@H](CO)[C@@H](O)[C@H]2O)n1 | Severe acute respiratory syndrome coronavirus | viral replication, inhibitor | Vero 76 | – | > 410 µM
COC(=O)[C@@H](N)[C@@H](C)OP1(=O)CO[C@@H](Cn2cnc3c(N)ncnc32)CO1 (stereo partly drawn) | cowpox virus | viral replication | – | – | 20 µM
C#CCCCOc1c2c(c(-c3ccc4c(c3)OCO4)c3cc(OC)c(OC)cc13)C(=O)OC2 | VSV pseudotyped with Ebola virus GP | viral entry, item: GFP | – | – | 0.0732 ± 0.0119 µM
CC(C)(C(=O)O)c1ccc(C(O)CCCN2CCC(C(O)(c3ccccc3)c3ccccc3)CC2)cc1 (stereo not drawn) | Marburg virus | HIV/MARV pseudovirion entry | A549 | 48 h | > 100 µM
CCCCCCCC/C=C\CCCCCCCC(=O)O | Human immunodeficiency virus 1 | viral entry, inhibitor | Calu-3 | pseudovirus | 25 µM
O=C1c2c(O)c(=O)ccn2N([C@@H]2c3ccccc3SCc3c2ccc(F)c3F)[C@@H]2COCCN12 | influenza A virus H5N1 | viral replication | – | – | < 3e-05 µM
C#CCOc1c2c(c(-c3ccc4c(c3)OCO4)c3cc(OC)c(OC)cc13)C(=O)OC2 | VSV pseudotyped with Ebola virus GP | viral entry, item: GFP | HeLa | – | 0.175 ± 0.0217 µM
O=c1[nH]c(Nc2cc(Cl)cc(Cl)c2)nc2cc(Cl)ccc12 | Middle East respiratory syndrome-related coronavirus | viral replication | Vero | – | < 1.1 µM
COc1cc2c(O)c3c(c(-c4ccc5c(c4)OCO5)c2cc1OC)C(=O)N(/N=C/c1ccc(Cl)cc1)C3 | VSV pseudotyped with Ebola virus GP | viral entry, item: GFP | – | – | 1.17 ± 0.518 µM
CCOCOC[C@H](C[C@H](C)C(=O)NO)NC(=O)c1ccc(Oc2ccccc2)cc1 | SARS-CoV-2 pseudovirus | viral entry | HeLa-ACE2, Delta spike | – | > 10 µM
CN(C)CCOC(C)(c1ccccc1)c1ccc(Cl)cc1 (stereo not drawn) | Marburg virus | HIV/MARV pseudovirion entry | A549 | 48 h | 6.2 ± 0.8 µM
COc1c(C)c2c(c(O)c1C/C=C(\C)CCC(=O)O)C(=O)OC2 | Severe acute respiratory syndrome coronavirus | viral replication, inhibitor | Vero 76 | – | > 30 µM
COc1cc2c(OCCCN3CCOCC3)c3c(c(-c4ccc5c(c4)OCO5)c2cc1OC)C(=O)OC3 | VSV pseudotyped with Marburg virus GP | viral entry, item: GFP | – | – | 0.135 ± 0.0114 µM
Nc1ccn([C@@H]2O[C@H](CO)[C@@H](O)C2(F)F)c(=O)n1 | Enterovirus C | viral replication | HeLa | – | 0.3 µM

Substance | organism | test | test system | conditions | IC50
CCN(CCO)CCCC(C)Nc1ccnc2cc(Cl)ccc12 (stereo not drawn) | SARS-CoV-2 Delta | viral replication, cell-based | – | 48 h | > 100 µM
Cc1cccc(CN2CCN(C(c3ccccc3)c3ccc(Cl)cc3)CC2)c1 (stereo not drawn) | Ebola virus Zaire | HIV/EBOV pseudovirion entry | A549 | 48 h | 6.7 ± 1.8 µM
oseltamivir carboxylate | Influenza A virus | enzyme activity, inhibitor | avian A(H9N2) | median over viruses | 0.00049 ± 8e-05 µM
OCCOCCN1CCN(C(c2ccccc2)c2ccc(Cl)cc2)CC1 (stereo not drawn) | Marburg virus | HIV/MARV pseudovirion entry | A549 | 48 h | 6.1 ± 2.8 µM
COC(=O)[C@@H](N)Cc1ccc(OP2(=O)CO[C@@H](Cn3cnc4c(N)ncnc43)CO2)cc1 (stereo partly drawn) | cowpox virus | viral replication | – | – | 10 µM and 7 µM
O=C1Nc2ccccc2/C1=C1\Nc2ccccc2\C1=N/O | SARS-CoV-2 Delta | viral replication, cell-based | – | – | 9.99 µM
N=C(N)Nc1ccc(C(=O)Oc2ccc3cc(C(=N)N)ccc3c2)cc1 | VSVΔG pseudotyped with SARS-CoV-2 S | pseudovirus infection | Alpha | tested range 0.3125 to 40 µM | 0.93 µM
CCOC(=O)C1=C[C@@H](OC(CC)CC)[C@H](NC(C)=O)[C@@H](N)C1 | influenza A virus H7N9 | viral replication | – | – | 0.0137 µM
COc1cc2c(O)c3c(c(-c4ccc5c(c4)OCO5)c2cc1OC)C(=O)N(/N=C/c1c(F)c(F)c(F)c(F)c1F)C3 | VSV pseudotyped with Ebola virus GP | viral entry, item: GFP | HeLa | – | 8.74 ± 2.18 µM
CC(C)(C)c1ccc(CN2CCN(C(c3ccccc3)c3ccc(Cl)cc3)CC2)cc1 (stereo not drawn) | Marburg virus | HIV/MARV pseudovirion entry | A549 | 48 h | 12.7 ± 11.5 µM
Nc1ccn(C[C@@H](CO)OCP(=O)(O)O)c(=O)n1 | vaccinia virus | viral replication | – | – | 20 µM
COc1cc2c(O)c3c(c(-c4ccc5c(c4)OCO5)c2cc1OC)C(=O)OC3 | VSV pseudotyped with Marburg virus GP | viral entry, item: GFP | – | – | 1.77 ± 0.08 µM
Cc1cccc(NC(=O)CS(=O)(=O)c2nc(-c3ccccc3)cn2-c2ccc(Cl)cc2)c1C | VSVΔG pseudotyped with SARS-CoV-2 S | pseudovirus infection | Delta | tested range 0.3125 to 40 µM | 0.49 µM
NC(=O)c1ncn([C@@H]2O[C@H](COP(=O)(O)O)[C@@H](O)[C@H]2O)n1 | Severe acute respiratory syndrome coronavirus | viral replication, inhibitor | Vero 76 | – | > 30 µM
Cc1cc(COc2ccc([C@]3(N)CCN([C@H](CC(C)C)C(=O)NO)C3=O)cc2)c2ccccc2n1 | SARS-CoV-2 pseudovirus | viral entry | HeLa-ACE2, Delta spike | – | > 10 µM
CC(C)OC(=O)[C@@H](N)Cc1ccc(OP2(=O)CO[C@@H](Cn3ccc(N)nc3=O)CO2)cc1 (stereo partly drawn) | cowpox virus | viral replication | – | – | 40 µM
NC(=O)c1ncn([C@@H]2O[C@H](CO)[C@@H](O)[C@H]2O)n1 | Western equine encephalitis virus | replicon replication | – | – | 16 µM
CC(C)(C)NC(=O)[C@@H](N)Cc1ccc(OP2(=O)CO[C@@H](Cn3ccc(N)nc3=O)CO2)cc1 (stereo partly drawn) | cowpox virus | viral replication | – | – | 20 µM
CN1CCN(C(c2ccccc2)c2ccc(Cl)cc2)CC1 (stereo not drawn) | Marburg virus | HIV/MARV pseudovirion entry | A549 | 48 h | 4.6 ± 0.1 µM

A few entries again:
Substance | organism | test | test system | conditions | IC50
Nc1ccn(C[C@@H](CO)OCP(=O)(O)O)c(=O)n1 | vaccinia virus | viral replication | – | – | 20 µM
COc1c(C)c2c(c(O)c1C/C=C(\C)CCC(=O)O)C(=O)OC2 | Severe acute respiratory syndrome coronavirus | viral replication, inhibitor | Vero 76 | – | > 30 µM
N=C(N)Nc1ccc(C(=O)Oc2ccc3cc(C(=N)N)ccc3c2)cc1 | VSVΔG pseudotyped with SARS-CoV-2 S | pseudovirus infection | Alpha | tested range 0.3125 to 40 µM | 0.93 µM
CCCCCCCC/C=C\CCCCCCCC(=O)O | Human immunodeficiency virus 1 | viral entry, inhibitor | Calu-3 | pseudovirus | 25 µM
CC(C)OC(=O)[C@@H](N)Cc1ccc(OP2(=O)CO[C@@H](Cn3ccc(N)nc3=O)CO2)cc1 (stereo partly drawn) | cowpox virus | viral replication | – | – | 40 µM
O=c1[nH]c(Nc2cc(Cl)cc(Cl)c2)nc2cc(Cl)ccc12 | Middle East respiratory syndrome-related coronavirus | viral replication | Vero | – | < 1.1 µM
CCOc1c2c(c(-c3ccc4c(c3)OCO4)c3cc(OC)c(OC)cc13)C(=O)OC2 | VSV pseudotyped with Ebola virus GP | viral entry, item: GFP | – | – | 0.112 ± 0.0147 µM
